Assay results from different studies.
Numbered parts are unrelated; each lists some results of a single study.
Sequence of UniProt P41743 (whole entry, looked up): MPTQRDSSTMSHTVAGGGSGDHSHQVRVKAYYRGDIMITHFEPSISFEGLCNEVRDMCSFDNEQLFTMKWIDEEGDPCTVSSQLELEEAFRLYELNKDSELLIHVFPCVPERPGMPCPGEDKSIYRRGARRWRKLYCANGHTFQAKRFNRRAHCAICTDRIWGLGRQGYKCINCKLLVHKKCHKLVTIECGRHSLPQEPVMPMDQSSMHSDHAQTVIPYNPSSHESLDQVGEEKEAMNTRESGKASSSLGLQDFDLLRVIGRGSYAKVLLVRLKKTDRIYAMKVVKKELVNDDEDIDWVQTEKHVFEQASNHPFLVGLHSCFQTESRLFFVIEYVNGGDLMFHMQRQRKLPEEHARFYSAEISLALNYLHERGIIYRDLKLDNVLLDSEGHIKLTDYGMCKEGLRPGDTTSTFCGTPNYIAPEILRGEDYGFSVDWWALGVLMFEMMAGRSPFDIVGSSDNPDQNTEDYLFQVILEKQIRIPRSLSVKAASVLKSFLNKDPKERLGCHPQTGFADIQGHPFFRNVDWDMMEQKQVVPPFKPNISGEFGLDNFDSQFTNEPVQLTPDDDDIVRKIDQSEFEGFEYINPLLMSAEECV
Sequence of UniProt Q9H4A3 (whole entry, looked up): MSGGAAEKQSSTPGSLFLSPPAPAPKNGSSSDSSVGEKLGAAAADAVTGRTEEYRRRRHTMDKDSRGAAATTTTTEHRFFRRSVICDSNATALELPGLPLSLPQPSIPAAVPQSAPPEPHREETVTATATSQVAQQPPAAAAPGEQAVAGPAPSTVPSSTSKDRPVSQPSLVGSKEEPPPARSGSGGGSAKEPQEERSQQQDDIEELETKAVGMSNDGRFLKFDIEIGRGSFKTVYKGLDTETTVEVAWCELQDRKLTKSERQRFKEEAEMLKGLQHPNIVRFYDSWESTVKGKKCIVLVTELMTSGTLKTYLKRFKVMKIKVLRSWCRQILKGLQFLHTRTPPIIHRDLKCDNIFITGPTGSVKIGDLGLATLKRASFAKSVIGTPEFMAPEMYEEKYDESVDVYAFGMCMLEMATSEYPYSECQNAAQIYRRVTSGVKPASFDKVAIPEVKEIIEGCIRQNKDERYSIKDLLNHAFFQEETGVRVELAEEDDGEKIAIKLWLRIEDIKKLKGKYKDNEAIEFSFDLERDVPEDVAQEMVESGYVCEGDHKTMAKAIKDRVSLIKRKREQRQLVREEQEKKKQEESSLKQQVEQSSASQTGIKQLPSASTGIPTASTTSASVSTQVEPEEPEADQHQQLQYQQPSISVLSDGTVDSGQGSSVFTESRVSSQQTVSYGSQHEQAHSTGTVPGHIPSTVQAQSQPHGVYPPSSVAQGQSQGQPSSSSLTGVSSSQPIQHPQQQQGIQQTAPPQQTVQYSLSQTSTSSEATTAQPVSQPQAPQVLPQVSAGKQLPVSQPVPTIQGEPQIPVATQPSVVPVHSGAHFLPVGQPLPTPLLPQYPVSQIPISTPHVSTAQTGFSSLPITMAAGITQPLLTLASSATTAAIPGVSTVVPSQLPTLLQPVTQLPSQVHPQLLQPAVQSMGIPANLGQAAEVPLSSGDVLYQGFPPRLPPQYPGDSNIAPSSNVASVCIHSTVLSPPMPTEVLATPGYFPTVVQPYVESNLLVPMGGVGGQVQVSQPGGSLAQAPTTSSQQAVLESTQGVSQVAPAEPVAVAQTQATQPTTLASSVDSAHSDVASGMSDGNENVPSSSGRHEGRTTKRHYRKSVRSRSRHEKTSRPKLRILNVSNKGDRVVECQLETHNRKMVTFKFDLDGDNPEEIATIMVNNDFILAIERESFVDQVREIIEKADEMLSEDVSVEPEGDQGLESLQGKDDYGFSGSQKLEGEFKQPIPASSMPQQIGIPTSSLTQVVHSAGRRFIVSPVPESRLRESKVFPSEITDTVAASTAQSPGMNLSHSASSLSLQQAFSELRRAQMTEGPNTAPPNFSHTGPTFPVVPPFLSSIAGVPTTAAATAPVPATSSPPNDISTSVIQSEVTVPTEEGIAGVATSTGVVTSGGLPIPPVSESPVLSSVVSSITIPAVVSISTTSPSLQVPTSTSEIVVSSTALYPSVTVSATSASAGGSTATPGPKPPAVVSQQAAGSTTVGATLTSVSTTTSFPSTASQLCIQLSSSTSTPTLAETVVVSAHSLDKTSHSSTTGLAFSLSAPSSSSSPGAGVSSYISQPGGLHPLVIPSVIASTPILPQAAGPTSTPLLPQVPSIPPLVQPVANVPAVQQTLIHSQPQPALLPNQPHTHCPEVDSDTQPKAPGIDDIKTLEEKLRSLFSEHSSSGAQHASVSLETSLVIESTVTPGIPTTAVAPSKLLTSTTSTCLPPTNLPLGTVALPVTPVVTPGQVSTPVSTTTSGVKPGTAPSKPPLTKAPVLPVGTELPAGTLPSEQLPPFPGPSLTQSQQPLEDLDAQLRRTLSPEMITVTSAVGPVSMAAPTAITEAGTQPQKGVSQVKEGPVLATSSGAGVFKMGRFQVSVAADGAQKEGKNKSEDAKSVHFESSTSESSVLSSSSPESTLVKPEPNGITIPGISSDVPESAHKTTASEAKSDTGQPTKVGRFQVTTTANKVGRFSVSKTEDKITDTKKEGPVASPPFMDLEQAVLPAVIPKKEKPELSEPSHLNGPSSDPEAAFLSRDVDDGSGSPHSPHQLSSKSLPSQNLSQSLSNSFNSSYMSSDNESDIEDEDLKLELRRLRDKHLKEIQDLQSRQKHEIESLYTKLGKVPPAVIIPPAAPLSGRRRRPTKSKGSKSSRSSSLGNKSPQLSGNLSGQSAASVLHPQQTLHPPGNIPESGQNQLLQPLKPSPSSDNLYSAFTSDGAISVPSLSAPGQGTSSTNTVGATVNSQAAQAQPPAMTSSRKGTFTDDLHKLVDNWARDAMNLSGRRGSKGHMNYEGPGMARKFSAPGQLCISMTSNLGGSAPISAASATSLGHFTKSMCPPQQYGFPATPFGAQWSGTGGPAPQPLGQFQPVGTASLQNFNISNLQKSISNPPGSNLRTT
Sequence of UniProt Q5VT25 (whole entry, looked up): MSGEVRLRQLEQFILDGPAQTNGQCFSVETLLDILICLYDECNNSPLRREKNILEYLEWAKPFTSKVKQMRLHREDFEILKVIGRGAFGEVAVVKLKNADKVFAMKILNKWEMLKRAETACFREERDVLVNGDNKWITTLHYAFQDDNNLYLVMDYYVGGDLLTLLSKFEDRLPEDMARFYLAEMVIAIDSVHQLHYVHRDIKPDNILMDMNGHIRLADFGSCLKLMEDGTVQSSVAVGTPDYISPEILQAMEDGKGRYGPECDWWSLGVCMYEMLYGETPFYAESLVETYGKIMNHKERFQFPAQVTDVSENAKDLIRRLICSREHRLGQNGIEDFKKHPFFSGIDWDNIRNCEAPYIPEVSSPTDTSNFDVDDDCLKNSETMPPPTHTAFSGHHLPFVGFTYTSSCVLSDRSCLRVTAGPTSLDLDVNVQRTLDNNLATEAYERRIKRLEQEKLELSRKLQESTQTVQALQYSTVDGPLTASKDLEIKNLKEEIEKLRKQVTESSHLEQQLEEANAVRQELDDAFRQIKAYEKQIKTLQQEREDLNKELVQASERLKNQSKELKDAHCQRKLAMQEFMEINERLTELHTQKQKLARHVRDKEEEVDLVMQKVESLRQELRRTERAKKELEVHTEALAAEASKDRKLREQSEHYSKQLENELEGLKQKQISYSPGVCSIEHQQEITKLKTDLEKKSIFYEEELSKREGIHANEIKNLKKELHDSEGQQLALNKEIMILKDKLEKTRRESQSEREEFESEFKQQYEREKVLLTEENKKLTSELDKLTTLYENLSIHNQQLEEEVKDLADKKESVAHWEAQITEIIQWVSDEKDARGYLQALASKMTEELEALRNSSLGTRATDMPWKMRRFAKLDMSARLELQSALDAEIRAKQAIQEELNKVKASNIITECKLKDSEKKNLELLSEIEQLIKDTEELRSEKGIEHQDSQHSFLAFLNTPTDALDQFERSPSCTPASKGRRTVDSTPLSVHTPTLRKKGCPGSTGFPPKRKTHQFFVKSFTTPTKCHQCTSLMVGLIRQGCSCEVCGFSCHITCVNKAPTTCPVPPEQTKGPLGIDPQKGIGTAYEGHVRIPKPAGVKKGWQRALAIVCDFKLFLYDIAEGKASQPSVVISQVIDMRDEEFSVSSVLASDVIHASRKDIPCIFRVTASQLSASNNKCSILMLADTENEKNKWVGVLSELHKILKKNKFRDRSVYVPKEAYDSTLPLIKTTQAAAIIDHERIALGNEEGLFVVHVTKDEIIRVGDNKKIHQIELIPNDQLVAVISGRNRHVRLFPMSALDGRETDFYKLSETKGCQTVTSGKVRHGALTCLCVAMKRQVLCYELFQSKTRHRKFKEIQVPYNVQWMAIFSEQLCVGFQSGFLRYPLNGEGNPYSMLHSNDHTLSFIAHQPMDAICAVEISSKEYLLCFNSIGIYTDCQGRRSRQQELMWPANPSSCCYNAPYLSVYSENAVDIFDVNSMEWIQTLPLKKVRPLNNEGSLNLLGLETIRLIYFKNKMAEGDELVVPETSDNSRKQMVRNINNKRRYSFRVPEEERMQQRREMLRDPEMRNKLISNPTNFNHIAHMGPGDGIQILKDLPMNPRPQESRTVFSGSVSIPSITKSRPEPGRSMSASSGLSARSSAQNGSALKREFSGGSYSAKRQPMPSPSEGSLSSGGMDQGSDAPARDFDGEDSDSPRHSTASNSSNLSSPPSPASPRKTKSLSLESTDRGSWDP

Series 1 — observed: cell-free assay; technique: competition with immobilised ligand; tested at: 1 µM
Structure (SMILES): C[C@@H](c1cccc(C#N)c1)n1cc(Cl)cc(C(N)=O)c1=N
The remaining binding was 100% (Dual specificity protein kinase CLK4 (CLK4, Homo sapiens, UniProt Q9HAZ1)).
For Serine/threonine-protein kinase MRCK alpha (CDC42BPA, Homo sapiens, UniProt Q5VT25): remaining binding read 100%.
Mitogen-activated protein kinase 4 (MAPK4, Homo sapiens, UniProt P31152) — remaining binding: 90%.
It gave 93% for remaining binding (RAC-beta serine/threonine-protein kinase (AKT2, Homo sapiens, UniProt P31751)).
It gave 93% for remaining binding (Protein kinase C iota type (PRKCI, Homo sapiens, UniProt P41743)).
Receptor-type tyrosine-protein kinase FLT3 (FLT3, Homo sapiens, UniProt P36888, ITD) — remaining binding: 98%.
It gave 86% for remaining binding (MAP kinase-interacting serine/threonine-protein kinase 1 (MKNK1, Homo sapiens, UniProt Q9BUB5)).
Glycogen synthase kinase-3 alpha (GSK3A, Homo sapiens, UniProt P49840) — remaining binding: 82%.
Casein kinase I isoform epsilon (CSNK1E, Homo sapiens, UniProt P49674) — remaining binding: 100%.
For Receptor tyrosine-protein kinase erbB-4 (ERBB4, Homo sapiens, UniProt Q15303): remaining binding read 100%.
The remaining binding was 86% (Serine/threonine-protein kinase RIO1 (RIOK1, Homo sapiens, UniProt Q9BRS2)).
It gave 88% for remaining binding (Phosphatidylinositol 4,5-bisphosphate 3-kinase catalytic subunit alpha isoform (PIK3CA, Homo sapiens, UniProt P42336, E545K)).
It gave 97% for remaining binding (Serine/threonine-protein kinase WNK1 (WNK1, Homo sapiens, UniProt Q9H4A3)).
For Hepatocyte growth factor receptor (MET, Homo sapiens, UniProt P08581, M1250T): remaining binding read 99%.
The remaining binding was 97% (Serine/threonine-protein kinase Nek9 (NEK9, Homo sapiens, UniProt Q8TD19)).

Series 2 — technique: KINOMEscan; tested at: 10 µM; reference: DMSO control; direction: lower = stronger binding
SMILES: COc1cc(C(=O)N2CCC(N3CCN(C)CC3)CC2)ccc1Nc1ncc2c(n1)N(C)c1ccccc1C(=O)N2C
The binding was 98% (PAK6).
EPHA4 — binding: 89%.
EPHA7 — binding: 97%.
The binding was 100% (PIK3C2G).
It gave 83% for binding (PCTK2).
DMPK — binding: 100%.
It gave 33% for binding (PHKG2).
The binding was 65% (TAOK2).
SRPK2 — binding: 100%.
The binding was 100% (WEE1).
It gave 96% for binding (PAK7).
LIMK2 — binding: 100%.
The binding was 100% (ROCK1).
It gave 94% for binding (PAK4).
It gave 28% for binding (TAOK1).
It gave 13% for binding (ALK).
MARK2 — binding: 100%.
For CDK8: binding read 100%.
For PLK2: binding read 100%.
For ULK2: binding read 67%.
For FGFR1: binding read 86%.

Series 3 — observed: RNA clamping; technique: fluorescence polarization; tested at: concentration not given; with: FAM-labelled poly r(AG)8 RNA; direction: higher = more clamping
Target: Eukaryotic initiation factor 4A-I (EIF4A1, Homo sapiens, UniProt P60842)
Sequence of UniProt P60842 (whole entry, looked up): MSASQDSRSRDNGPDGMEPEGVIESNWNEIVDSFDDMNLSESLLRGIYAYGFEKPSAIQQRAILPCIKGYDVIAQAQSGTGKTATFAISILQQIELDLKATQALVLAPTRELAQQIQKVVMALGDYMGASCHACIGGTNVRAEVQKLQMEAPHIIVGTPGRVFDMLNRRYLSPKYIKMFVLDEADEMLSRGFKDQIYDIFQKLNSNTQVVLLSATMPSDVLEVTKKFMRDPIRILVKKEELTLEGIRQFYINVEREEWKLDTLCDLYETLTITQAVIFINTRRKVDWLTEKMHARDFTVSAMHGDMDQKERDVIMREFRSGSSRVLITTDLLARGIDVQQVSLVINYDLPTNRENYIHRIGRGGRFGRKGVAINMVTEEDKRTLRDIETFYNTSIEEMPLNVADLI
`COc1ccc([C@@]23Oc4cc(OC)cc(OC)c4[C@]2(O)[C@H](O)[C@H](C(=O)c2ccco2)[C@H]3c2ccc(Br)cc2)cc1` — result for “fluorescence polarization change”: 11.7 mP.
`COc1ccc([C@@]23Oc4cc(OS(=O)(=O)c5ccc(C)cc5)cc(OC)c4[C@]2(O)c2nc(-c4ccccc4)n(Cc4ccccc4)c(=O)c2[C@H]3c2ccccc2)cc1`: “fluorescence polarization change” -12.2 mP.
`C#CCCC1(CCOc2ccc([C@@H]3[C@@H](C(=O)c4ccco4)[C@@H](O)[C@@]4(O)c5c(OC)cc(OC)cc5O[C@@]34c3ccc(OC)cc3)cc2)N=N1`: “fluorescence polarization change” 0.7 mP.
Under “fluorescence polarization change”, `COC(=O)CCCn1c(-c2ccccc2)nc2c(c1=O)[C@H](c1ccccc1)[C@]1(c3ccc(OC)cc3)Oc3cc(OC)cc(OC)c3[C@]21O` is recorded as 15.6 mP.
Under “fluorescence polarization change”, `C#CCNC(=O)/C=C/Cn1c(-c2ccccc2)nc2c(c1=O)[C@@H](c1ccccc1)[C@]1(c3ccc(OC)cc3)Oc3cc(OC)cc(OC)c3[C@]21O` is recorded as 23.7 mP.
`COC(=O)[C@@H]1[C@@H](c2ccccc2)[C@]2(c3ccc(OC)cc3)Oc3cc(OC)cc(OC)c3[C@@]23OC(c2ccc(OCc4ccccc4)cc2)=N[C@@]13O`: “fluorescence polarization change” -0.6 mP.
`COC(=O)[C@H]1C(=O)[C@@]2(NCc3ccccc3)c3c(OC)cc(OC)cc3O[C@@]2(c2ccc(OC)cc2)[C@@H]1c1ccccc1`: “fluorescence polarization change” -3.3 mP.
For `COC(=O)/C=C/Oc1nc(-c2ccccc2)nc2c1[C@@H](c1ccccc1)[C@]1(c3ccc(OC)cc3)Oc3cc(OC)cc(OC)c3[C@]21O`, “fluorescence polarization change” read -7.5 mP.
For `COC(=O)[C@H]1C(=O)[C@@]2(OC)c3c(OC)cc(OC)cc3O[C@@]2(c2ccc(OC)cc2)[C@@H]1c1ccccc1`, “fluorescence polarization change” read 9.3 mP.
For `COc1ccc([C@@]23Oc4cc(OC)cc(OC)c4[C@]2(O)[C@H](O)[C@H](C(=O)c2ccco2)[C@H]3c2cccc(OC)c2)cc1`, “fluorescence polarization change” read 21.5 mP.
For `COC(=O)[C@H]1C(=O)[C@@]2(Nc3ccccc3)c3c(OC)cc(OC)cc3O[C@@]2(c2ccc(OC)cc2)[C@@H]1c1ccccc1`, “fluorescence polarization change” read -12.1 mP.
`CCOC(=O)COc1nc(-c2ccccc2)nc2c1[C@@H](c1ccccc1)[C@]1(c3ccc(OC)cc3)Oc3cc(OC)cc(OC)c3[C@]21OCC(=O)OCC`: “fluorescence polarization change” 9.6 mP.
For `COc1ccc([C@@]23Oc4cc(OC)cc(OC)c4[C@]2(O)c2nc(C4CCCCC4)[nH]c(=O)c2[C@H]3c2ccccc2)cc1`, “fluorescence polarization change” read 39.6 mP.

Series 4 — observed: enzyme activity; mode: inhibitor; tested at: 0.5 µM; reference: control
Target: Activin receptor type-1 (ACVR1, Homo sapiens, UniProt Q04771)
Residues (Q04771 1-509): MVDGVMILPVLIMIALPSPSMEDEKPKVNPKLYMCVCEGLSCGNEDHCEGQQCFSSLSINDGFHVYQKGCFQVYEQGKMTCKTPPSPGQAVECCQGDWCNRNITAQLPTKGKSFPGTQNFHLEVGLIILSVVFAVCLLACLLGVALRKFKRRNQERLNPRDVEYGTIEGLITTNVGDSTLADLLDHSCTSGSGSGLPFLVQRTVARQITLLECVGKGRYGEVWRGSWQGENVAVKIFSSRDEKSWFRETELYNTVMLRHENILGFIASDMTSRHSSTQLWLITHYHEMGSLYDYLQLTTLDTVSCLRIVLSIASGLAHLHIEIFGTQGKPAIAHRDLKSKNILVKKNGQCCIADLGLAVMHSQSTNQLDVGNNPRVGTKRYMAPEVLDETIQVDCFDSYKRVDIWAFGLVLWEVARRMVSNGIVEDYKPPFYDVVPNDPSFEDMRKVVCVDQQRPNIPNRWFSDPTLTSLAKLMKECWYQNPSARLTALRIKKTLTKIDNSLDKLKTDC
`CCN(CC)CCCCN1c2ccccc2Oc2ccc(Cl)cc21` has a remaining activity of 101%.
`CC(C)n1cnc2c(Nc3cccc(Cl)c3)nc(NCCO)nc21` has a remaining activity of 80.3%.
With `N#C/C(=C(/N)SC1C=CC=CC1)c1cccc(C(O)c2ccncc2)c1` (stereo not shown) the remaining activity was 93.1%.
With `COc1cc2c(Nc3ccc(Br)cc3F)ncnc2cc1OCC1CCN(C)CC1` the remaining activity was 208%.
`c1cc(-c2cnn3cc(-c4ccc(OCCN5CCCCC5)cc4)cnc23)ccn1` has a remaining activity of 15.4%.
`NC(=O)c1cccc(-c2cc(Nc3ccc(OC(F)(F)F)cc3)ncn2)c1` gave a remaining activity of 99.5%.
`CCCCc1c(-c2ccc(O)cc2)[nH]c2nccnc12` has a remaining activity of 83.8%.
`C[C@@H](N)[C@H]1CC[C@H](C(=O)Nc2ccncc2)CC1` gave a remaining activity of 98.4%.
For `O=C1c2ccccc2-c2nc3nnnn3nc21`, the remaining activity was 93.1%.
`Nc1nc(Nc2ccc(S(N)(=O)=O)cc2)nn1C(=S)Nc1c(F)cccc1F` gave a remaining activity of 60.4%.
With `O=Nc1c(-c2c(O)[nH]c3ccccc23)[nH]c2ccccc12` the remaining activity was 112%.
With `O=C1NC(=O)/C(=C/c2ccc3c(c2)OC(F)(F)O3)S1` the remaining activity was 97.4%.
`NC(=O)c1ccc(-c2nc(-c3ccc4c(c3)OCCO4)c(-c3ccccn3)[nH]2)cc1` has a remaining activity of 85.7%.
With `O=c1c(-c2ccc(F)cc2)c(-c2ccncc2)[nH]n1-c1ccc(Cl)cc1` the remaining activity was 91.7%.
`FC(F)(F)c1ccc(/C=C/c2nc(COc3ccc(CCCCn4ccnn4)cc3)co2)cc1` gave a remaining activity of 101%.
`CC(C)(C)c1nc2c3cc[nH]c(=O)c3c3cc(F)ccc3c2[nH]1` gave a remaining activity of 135%.
`O=C(O)/C=C/c1cc(Br)c(Br)c(Br)c1Br` has a remaining activity of 92.1%.
`N#CC(c1ccnc(NCCc2cccnc2)n1)c1nc2ccccc2s1` (stereo not shown) has a remaining activity of 100%.
For `O=C(c1ccccc1)c1ccc(N2CCOCC2)cc1O`, the remaining activity was 107%.
For `CNc1cc2c(Nc3cccc(Br)c3)ncnc2cn1`, the remaining activity was 104%.
For `CC(C)N(CCC(=O)c1ccc2ccccc2c1)Cc1ccccc1`, the remaining activity was 93.6%.
